Measurements of several laboratories.
± gives the spread as reported.
STAT1 SH2 domain: Signal transducer and activator of transcription 1-alpha/beta, SH2 domain (STAT1, Homo sapiens, UniProt P42224)
Chain of UniProt P42224 (whole entry, looked up): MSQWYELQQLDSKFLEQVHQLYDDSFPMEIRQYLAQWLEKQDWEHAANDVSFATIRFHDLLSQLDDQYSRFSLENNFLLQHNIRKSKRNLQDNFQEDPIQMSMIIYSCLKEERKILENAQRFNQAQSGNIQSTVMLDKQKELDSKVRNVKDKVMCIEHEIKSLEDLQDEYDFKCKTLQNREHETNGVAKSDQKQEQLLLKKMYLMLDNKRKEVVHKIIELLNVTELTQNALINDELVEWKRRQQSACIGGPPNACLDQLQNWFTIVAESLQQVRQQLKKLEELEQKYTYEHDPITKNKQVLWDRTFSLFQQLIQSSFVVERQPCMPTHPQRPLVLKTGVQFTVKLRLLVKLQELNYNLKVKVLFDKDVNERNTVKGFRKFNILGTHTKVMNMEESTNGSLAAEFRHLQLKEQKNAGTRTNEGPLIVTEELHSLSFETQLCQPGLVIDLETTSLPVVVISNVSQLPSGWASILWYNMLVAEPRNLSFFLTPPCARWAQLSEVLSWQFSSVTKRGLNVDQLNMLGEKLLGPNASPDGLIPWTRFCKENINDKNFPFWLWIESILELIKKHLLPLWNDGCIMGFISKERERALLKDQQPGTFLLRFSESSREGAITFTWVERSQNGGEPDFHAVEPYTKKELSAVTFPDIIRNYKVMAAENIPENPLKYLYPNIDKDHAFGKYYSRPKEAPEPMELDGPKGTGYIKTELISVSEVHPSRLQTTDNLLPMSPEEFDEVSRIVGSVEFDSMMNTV
BCHE: Cholinesterase (BCHE, Homo sapiens, UniProt P06276)
Chain of UniProt P06276 (whole entry, looked up): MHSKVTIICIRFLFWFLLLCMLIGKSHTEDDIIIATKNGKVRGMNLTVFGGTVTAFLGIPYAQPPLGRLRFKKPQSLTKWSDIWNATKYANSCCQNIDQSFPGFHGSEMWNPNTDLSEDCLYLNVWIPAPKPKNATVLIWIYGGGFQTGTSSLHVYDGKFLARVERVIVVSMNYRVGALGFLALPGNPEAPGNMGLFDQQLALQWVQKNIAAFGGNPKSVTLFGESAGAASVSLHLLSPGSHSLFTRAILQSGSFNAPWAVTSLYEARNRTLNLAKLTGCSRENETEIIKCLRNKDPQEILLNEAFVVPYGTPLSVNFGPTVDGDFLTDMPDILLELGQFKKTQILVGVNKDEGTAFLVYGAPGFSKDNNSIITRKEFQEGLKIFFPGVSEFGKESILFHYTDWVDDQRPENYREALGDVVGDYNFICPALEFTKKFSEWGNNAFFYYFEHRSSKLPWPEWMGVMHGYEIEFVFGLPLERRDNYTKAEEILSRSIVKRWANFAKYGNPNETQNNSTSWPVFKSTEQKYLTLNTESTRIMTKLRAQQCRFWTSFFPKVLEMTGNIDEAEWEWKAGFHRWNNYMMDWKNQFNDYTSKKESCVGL
Chain of UniProt Q08460 (whole entry, looked up): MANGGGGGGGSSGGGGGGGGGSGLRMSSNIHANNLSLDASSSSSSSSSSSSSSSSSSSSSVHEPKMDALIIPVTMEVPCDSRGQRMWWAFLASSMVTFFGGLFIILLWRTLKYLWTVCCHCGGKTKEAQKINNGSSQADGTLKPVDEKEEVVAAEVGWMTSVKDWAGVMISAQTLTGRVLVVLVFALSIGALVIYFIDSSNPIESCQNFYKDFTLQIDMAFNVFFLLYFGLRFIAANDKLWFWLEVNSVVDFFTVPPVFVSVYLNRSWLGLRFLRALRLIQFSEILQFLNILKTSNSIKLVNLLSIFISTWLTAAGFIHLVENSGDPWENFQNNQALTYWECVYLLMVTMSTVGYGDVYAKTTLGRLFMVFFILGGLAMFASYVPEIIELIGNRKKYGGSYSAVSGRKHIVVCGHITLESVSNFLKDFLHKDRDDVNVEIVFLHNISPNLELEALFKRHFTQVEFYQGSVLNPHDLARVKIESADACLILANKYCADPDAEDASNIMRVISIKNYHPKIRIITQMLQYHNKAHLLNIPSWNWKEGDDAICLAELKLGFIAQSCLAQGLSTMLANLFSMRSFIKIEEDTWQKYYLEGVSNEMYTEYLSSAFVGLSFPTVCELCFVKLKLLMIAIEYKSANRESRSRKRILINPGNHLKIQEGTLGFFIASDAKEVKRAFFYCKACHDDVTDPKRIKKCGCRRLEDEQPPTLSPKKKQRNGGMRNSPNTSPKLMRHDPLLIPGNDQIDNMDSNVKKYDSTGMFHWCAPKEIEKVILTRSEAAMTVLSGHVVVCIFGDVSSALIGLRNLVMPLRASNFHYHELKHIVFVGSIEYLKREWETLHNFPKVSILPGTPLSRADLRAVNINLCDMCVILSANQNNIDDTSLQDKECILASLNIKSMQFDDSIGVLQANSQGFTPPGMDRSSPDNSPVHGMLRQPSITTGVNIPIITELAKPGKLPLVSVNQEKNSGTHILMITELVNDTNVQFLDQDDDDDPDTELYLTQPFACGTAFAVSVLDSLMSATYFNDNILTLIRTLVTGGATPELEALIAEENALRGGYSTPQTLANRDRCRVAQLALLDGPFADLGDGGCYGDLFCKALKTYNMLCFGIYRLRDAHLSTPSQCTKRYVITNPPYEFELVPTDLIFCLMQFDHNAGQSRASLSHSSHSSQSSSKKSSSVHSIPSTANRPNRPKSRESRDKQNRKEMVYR
Chain of UniProt P37231 (whole entry, looked up): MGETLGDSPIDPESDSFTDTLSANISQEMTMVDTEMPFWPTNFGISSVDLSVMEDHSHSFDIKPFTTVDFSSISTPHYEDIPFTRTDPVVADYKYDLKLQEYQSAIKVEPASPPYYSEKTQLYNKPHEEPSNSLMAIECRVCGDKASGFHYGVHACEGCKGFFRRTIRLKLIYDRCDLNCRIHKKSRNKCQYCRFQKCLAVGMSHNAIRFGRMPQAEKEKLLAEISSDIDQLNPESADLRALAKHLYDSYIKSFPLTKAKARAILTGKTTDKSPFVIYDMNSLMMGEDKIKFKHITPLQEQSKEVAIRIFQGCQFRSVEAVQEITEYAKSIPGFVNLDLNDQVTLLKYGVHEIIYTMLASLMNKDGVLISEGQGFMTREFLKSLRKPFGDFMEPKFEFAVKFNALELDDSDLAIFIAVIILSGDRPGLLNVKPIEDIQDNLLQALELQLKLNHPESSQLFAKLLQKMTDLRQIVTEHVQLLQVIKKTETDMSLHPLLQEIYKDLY
Chain of UniProt Q9NWS0 (1-180, looked up): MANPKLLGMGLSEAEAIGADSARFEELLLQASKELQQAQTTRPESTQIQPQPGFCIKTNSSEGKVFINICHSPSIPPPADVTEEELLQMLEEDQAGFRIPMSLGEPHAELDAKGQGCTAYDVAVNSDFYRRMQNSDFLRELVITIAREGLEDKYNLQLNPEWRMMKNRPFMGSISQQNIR
Chain of UniProt Q92743 (whole entry, looked up): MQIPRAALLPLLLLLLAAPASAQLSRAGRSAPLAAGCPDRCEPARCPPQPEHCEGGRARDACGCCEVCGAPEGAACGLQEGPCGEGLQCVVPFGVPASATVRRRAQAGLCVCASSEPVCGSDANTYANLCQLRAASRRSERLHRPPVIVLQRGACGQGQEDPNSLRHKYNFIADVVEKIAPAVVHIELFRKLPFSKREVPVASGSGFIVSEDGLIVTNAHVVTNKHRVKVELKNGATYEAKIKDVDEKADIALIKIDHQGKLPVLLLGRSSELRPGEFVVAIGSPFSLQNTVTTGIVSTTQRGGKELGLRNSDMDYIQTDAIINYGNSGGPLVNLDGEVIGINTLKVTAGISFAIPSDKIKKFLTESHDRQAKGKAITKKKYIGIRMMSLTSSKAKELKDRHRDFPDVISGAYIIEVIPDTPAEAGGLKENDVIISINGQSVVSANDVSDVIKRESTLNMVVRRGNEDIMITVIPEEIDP
Chain of UniProt P00519 (whole entry, looked up): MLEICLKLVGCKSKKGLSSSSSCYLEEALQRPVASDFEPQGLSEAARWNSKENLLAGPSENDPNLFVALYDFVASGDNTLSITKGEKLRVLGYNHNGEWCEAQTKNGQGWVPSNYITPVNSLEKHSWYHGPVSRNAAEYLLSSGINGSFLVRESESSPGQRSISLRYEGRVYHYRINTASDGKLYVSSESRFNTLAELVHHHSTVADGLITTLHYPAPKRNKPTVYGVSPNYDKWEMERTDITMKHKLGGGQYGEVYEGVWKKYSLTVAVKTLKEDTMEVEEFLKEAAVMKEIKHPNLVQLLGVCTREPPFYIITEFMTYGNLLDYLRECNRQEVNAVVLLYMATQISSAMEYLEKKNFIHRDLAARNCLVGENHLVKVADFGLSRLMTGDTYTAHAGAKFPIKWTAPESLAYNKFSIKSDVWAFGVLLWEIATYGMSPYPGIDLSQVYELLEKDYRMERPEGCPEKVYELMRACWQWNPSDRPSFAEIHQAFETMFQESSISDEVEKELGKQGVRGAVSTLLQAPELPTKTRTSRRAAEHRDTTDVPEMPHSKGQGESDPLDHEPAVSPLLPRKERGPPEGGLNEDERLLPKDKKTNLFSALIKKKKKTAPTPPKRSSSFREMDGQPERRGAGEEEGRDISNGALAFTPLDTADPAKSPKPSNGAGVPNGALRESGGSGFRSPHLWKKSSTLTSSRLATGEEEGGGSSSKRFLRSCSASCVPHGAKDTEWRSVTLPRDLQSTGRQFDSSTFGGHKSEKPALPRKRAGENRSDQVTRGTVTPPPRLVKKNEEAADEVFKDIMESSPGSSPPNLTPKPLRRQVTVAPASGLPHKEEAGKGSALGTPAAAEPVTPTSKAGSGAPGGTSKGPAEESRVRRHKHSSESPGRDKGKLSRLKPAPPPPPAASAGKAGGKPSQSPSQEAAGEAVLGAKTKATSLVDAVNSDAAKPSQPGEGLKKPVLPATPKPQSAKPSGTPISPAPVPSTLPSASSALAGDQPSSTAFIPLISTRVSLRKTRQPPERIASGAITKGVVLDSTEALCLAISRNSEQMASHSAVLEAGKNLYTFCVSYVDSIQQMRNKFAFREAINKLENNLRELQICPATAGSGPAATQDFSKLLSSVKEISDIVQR

| SMILES | target | test | system | conditions | endpoint | result |
| --- | --- | --- | --- | --- | --- | --- |
| CC[C@H](C)[C@H](NC(=O)[C@H](Cc1ccc(OP(=O)(O)O)cc1)NC(=O)[C@H](CCC(=O)O)NC(=O)[C@H](Cc1c[nH]cn1)NC(=O)CNC(=O)[C@H](CC(=O)O)NC(=O)[C@H](CO)NC(=O)[C@H](CO)NC(=O)[C@@H](NC(=O)[C@H](CO)NC(=O)[C@H](CCC(=O)O)NC(=O)c1ccc2c(c1)C(=O)OC21c2ccc(N(C)C)cc2Oc2cc(N(C)C)ccc21)C(C)C)C(=O)N[C@@H](Cc1ccc(O)cc1)C(=O)N[C@H](C(=O)N[C@@H](CC(=O)O)C(=O)N1CCC[C@H]1C(=O)N[C@@H](CCSC)C(=O)N[C@@H](CCC(N)=O)C(=O)N[C@@H](CC(=O)O)C(=O)O)C(C)C | Cytoplasmic tyrosine-protein kinase BMX, SH2 domain (BMX, Homo sapiens, UniProt P51813) | binding | – | – | Kd | 1540 nM |
| Nc1ncnc2c1ncn2[C@@H]1O[C@H](COP(=O)(O)OP(=O)(O)OP(=O)(O)O)[C@@H](O)[C@H]1O | matB (Rhodopseudomonas palustris, UniProt Q6ND88, C106A/K488A/Q457C/R286C) | binding | Bicine buffer | pH 8.5 | Kd | 4400 ± 400 nM |
| CC(C)C[C@H](NC(=O)[C@@H](NC(=O)[C@H](CO)NC(=O)[C@H](CO)NC(=O)[C@@H](NC(=O)[C@H](CC(=O)O)NC(=O)[C@H](CC(C)C)NC(=O)[C@@H]1CCCN1C(=O)[C@H](CO)NC(=O)c1ccc2c(c1)C(=O)OC21c2ccc(N(C)C)cc2Oc2cc(N(C)C)ccc21)[C@@H](C)O)C(C)C)C(=O)N[C@@H](Cc1ccc(OP(=O)(O)O)cc1)C(=O)N[C@H](C(=O)N[C@@H](C)C(=O)N[C@H](C(=O)N[C@@H](CCC(N)=O)C(=O)N1CCC[C@H]1C(=O)N[C@@H](CC(N)=O)C(=O)N[C@@H](CCC(=O)O)C(=O)N[C@@H](CC(=O)O)C(=O)O)C(C)C)[C@@H](C)O | STAT1 SH2 domain | binding | – | – | Kd | 1880 nM |
| CC1=C(N(C)C)C(=O)c2ccccc2C1=O | Reaction center protein M chain, QA site (pufM, Cereibacter sphaeroides, UniProt P0C0Y9) | QA site binding | LDAO detergent solution | pH 7.8, 298 K, together with: 1 µM reaction centres | Kd | 60 nM |
| CC[C@H](C)[C@H](NC(=O)c1ccc2c(c1)C(=O)OC21c2ccc(N(C)C)cc2Oc2cc(N(C)C)ccc21)C(=O)N[C@@H](CCC(=O)O)C(=O)N[C@@H](CO)C(=O)N[C@@H](CO)C(=O)N[C@@H](CC(N)=O)C(=O)N[C@@H](Cc1ccc(O)cc1)C(=O)N[C@@H](CCSC)C(=O)N[C@@H](C)C(=O)N1CCC[C@H]1C(=O)N[C@@H](Cc1ccc(OP(=O)(O)O)cc1)C(=O)N[C@@H](CC(=O)O)C(=O)N[C@@H](CC(N)=O)C(=O)N[C@@H](Cc1ccc(O)cc1)C(=O)N[C@H](C(=O)N1CCC[C@H]1C(=O)N[C@@H](CO)C(=O)N[C@@H](C)C(=O)N[C@@H](CC(=O)O)C(=O)O)C(C)C | STAT1 SH2 domain | binding | – | – | Kd | 978 nM |
| O=C(N/N=C/c1ccc(Cl)cc1Cl)c1cnccn1 | Gag-Pol polyprotein, integrase with LEDGF/p75 (gag-pol, Human immunodeficiency virus 1, UniProt P12497) | LEDGF/p75-integrase interaction, inhibitor, AlphaScreen | – | – | IC50 | > 50 µM |
| C[N+](C)(CCOc1ccccc1)Cc1cccs1 | BCHE | inhibitor | – | – | IC50 | 3.31 ± 0.22 µM |
| CC[C@H](C)[C@H](NC(=O)[C@H](CCC(N)=O)NC(=O)[C@@H](NC(=O)[C@@H]1CCCN1C(=O)[C@@H](NC(=O)[C@H](CO)NC(=O)[C@H](Cc1ccccc1)NC(=O)[C@@H]1CCCN1C(=O)[C@H](CCC(N)=O)NC(=O)[C@@H](N)CCSC)[C@@H](C)CC)C(C)C)C(=O)N[C@H](C(=O)N[C@@H](CC(C)C)C(=O)N[C@@H](CCC(N)=O)C(=O)NCC(=O)N[C@@H](CO)C(=O)N[C@@H](CCCNC(=N)N)C(=O)N[C@@H](CCCNC(=N)N)C(=O)N[C@@H](CCCNC(=N)N)C(=O)N[C@@H](CCC(N)=O)C(=O)NCC(=O)N[C@@H](CCCNC(=N)N)C(N)=O)[C@@H](C)O | Kcnma1 (Mus musculus, UniProt Q08460) | ion current, blocker, inside-out patch clamp | Xenopus oocytes | range over 1 µM, pH 7.0, 22–24 °C, at 0 mV, together with: 10 µM cytosolic Ca2+ | Kd | 8000 nM |
| CC(C)C[C@H](NC(=O)[C@H](CC(=O)O)NC(=O)[C@H](COP(=O)(O)O)NC(=O)[C@H](CC(=O)O)NC(=O)[C@H](CO)NC(=O)CNC(=O)[C@H](C)NC(=O)[C@@H](N)Cc1ccc(O)cc1)C(=O)N[C@@H](CC(=O)O)C(=O)N[C@@H](COP(=O)(O)O)C(=O)N[C@@H](CC(=O)O)C(=O)N[C@@H](CC(=O)O)C(=O)N[C@@H](CCC(=O)O)C(=O)N[C@@H](Cc1ccccc1)C(=O)N[C@H](C(=O)N1CCC[C@H]1C(=O)N[C@@H](Cc1ccc(O)cc1)C(N)=O)C(C)C | PIH1 domain-containing protein 1, residues 1-180 (PIH1D1, Homo sapiens, UniProt Q9NWS0) | ITC | – | pH 8.0, 20 °C, together with: phosphopeptide | Kd | 1500 ± 200 nM |
| COc1ccccc1N1CCN(/N=C/c2ccc(Cl)c([N+](=O)[O-])c2)CC1 | Gag-Pol polyprotein, integrase (gag-pol, Human immunodeficiency virus 1, UniProt P12497) | 3'-processing activity, inhibitor | – | wild-type integrase | IC50 | > 100 µM |
| O[C@@](Cc1ncc(CC2(C(F)(F)F)CC2)[nH]1)(c1ccc(-n2cccn2)cc1)C(F)(F)F | BCHE | inhibitor | – | – | IC50 | 4.34 ± 0.5 µM |
| N[C@H](Cc1ccccc1)C(=O)O | PAL1 (Petroselinum crispum, UniProt P24481, Y110F) | ITC | – | – | Kd | 29200 nM |
| CC[C@H](C)[C@@H]1NC(=O)[C@H](Cc2ccccc2)NC(=O)[C@H](Cc2ccccc2)NC(=O)[C@@H]2CCCN2C(=O)[C@H](Cc2ccccc2)NC(=O)[C@H](C(C)C)NC(=O)[C@@H]2CCCN2C(=O)[C@H]([C@@H](C)CC)NC(=O)[C@H]([C@@H](C)CC)NC(=O)[C@H](CC(C)C)NC(=O)[C@@H](NC(=O)[C@H](CCSC)NC(C)=O)CSSC[C@@H](C(=O)NCC(=O)N[C@@H](CO)C(=O)NCC(=O)N[C@@H](CO)C(=O)N[C@@H](CC(=O)O)C(=O)N[C@@H](Cc2ccc(O)cc2)C(=O)N[C@@H](CCCCN)C(=O)N[C@@H](CC(=O)O)C(=O)N[C@@H](CC(=O)O)C(=O)N[C@@H](CC(=O)O)C(=O)N[C@@H](CC(=O)O)C(=O)N[C@@H](CCCCN)C(N)=O)NC1=O | Gastric inhibitory polypeptide receptor, extracellular domain (GIPR, Homo sapiens, UniProt P48546) | binding, biolayer interferometry | – | crude peptide, single concentration | Kd | 65 nM |
| CC[C@H](C)[C@H](NC(=O)[C@H](Cc1c[nH]c2ccccc12)NC(=O)[C@H](C)NC(=O)[C@H](C)NC(=O)[C@H](Cc1ccc(O)cc1)NC(=O)[C@@H](N)CO)C(=O)N[C@@H](CC(=O)O)C(=O)N[C@@H](CO)C(=O)N[C@H](C(=O)N[C@@H](CC(C)C)C(=O)N[C@@H](C)C(=O)O)C(C)C | Serine protease HTRA1, PDZ domain (Homo sapiens, UniProt Q92743) | isothermal titration calorimetry | isolated PDZ domain | pH 8.0 | Kd | 4100 nM |
| CC[C@H](C)[C@H](NC(=O)[C@H](CCCCN)NC(=O)[C@H](Cc1c[nH]cn1)NC(=O)[C@H](CCCCN)NC(=O)[C@H](CCC(=O)O)NC(=O)[C@H](CCCCN)NC(=O)[C@H](CC(C)C)NC(=O)c1ccc2c(c1)C(=O)OC21c2ccc(O)cc2Oc2cc(O)ccc21)C(=O)N[C@@H](CC(C)C)C(=O)N[C@@H](Cc1c[nH]cn1)C(=O)N[C@@H](CCCNC(=N)N)C(=O)N[C@@H](CC(C)C)C(=O)N[C@@H](CC(C)C)C(=O)N[C@@H](CCC(N)=O)C(=O)N[C@@H](CC(=O)O)C(=O)N[C@@H](CO)C(=O)N[C@@H](CO)C(=O)N[C@@H](CO)C(=O)N1CCC[C@H]1C(=O)N[C@H](C(=O)O)C(C)C | Peroxisome proliferator-activated receptor gamma (PPARG, Homo sapiens, UniProt P37231) | binding | – | – | Kd | 27600 nM |
| CSCC[C@H](NC(=O)CNC(=O)[C@H](Cc1ccccc1)NC(=O)[C@H](CC(=O)O)NC(=O)CNC(=O)c1ccc2c(c1)C(=O)OC21c2ccc(N(C)C)cc2Oc2cc(N(C)C)ccc21)C(=O)N[C@@H](CO)C(=O)N[C@@H](CCCNC(=N)N)C(=O)N[C@@H](CC(=O)O)C(=O)N[C@H](C(=O)N[C@@H](Cc1ccc(OP(=O)(O)O)cc1)C(=O)N[C@@H](CO)C(=O)N[C@H](C(=O)N[C@@H](CC(=O)O)C(=O)N[C@@H](Cc1ccc(O)cc1)C(=O)N[C@@H](Cc1ccc(O)cc1)C(=O)N[C@@H](CCCNC(=N)N)C(=O)N[C@H](C(=O)N[C@@H](CC(=O)O)C(=O)O)C(C)C)[C@@H](C)O)C(C)C | Tyrosine-protein kinase ABL1, SH2 domain (ABL1, Homo sapiens, UniProt P00519) | binding | – | – | Kd | 841 nM |
| CN1C2CCCC1CC(NC(=O)c1nn(C)c3ccccc13)C2 (centres unmarked) | Soluble acetylcholine receptor (Aplysia californica, UniProt Q8WSF8, K160T/Q74R/S111E/V159L/Y212A) | homologous radioligand competition | – | – | Kd | 2170 ± 163 nM |

Some of these lines once more:
| SMILES | target | test | system | conditions | endpoint | result |
| --- | --- | --- | --- | --- | --- | --- |
| CC[C@H](C)[C@H](NC(=O)[C@H](CCC(N)=O)NC(=O)[C@@H](NC(=O)[C@@H]1CCCN1C(=O)[C@@H](NC(=O)[C@H](CO)NC(=O)[C@H](Cc1ccccc1)NC(=O)[C@@H]1CCCN1C(=O)[C@H](CCC(N)=O)NC(=O)[C@@H](N)CCSC)[C@@H](C)CC)C(C)C)C(=O)N[C@H](C(=O)N[C@@H](CC(C)C)C(=O)N[C@@H](CCC(N)=O)C(=O)NCC(=O)N[C@@H](CO)C(=O)N[C@@H](CCCNC(=N)N)C(=O)N[C@@H](CCCNC(=N)N)C(=O)N[C@@H](CCCNC(=N)N)C(=O)N[C@@H](CCC(N)=O)C(=O)NCC(=O)N[C@@H](CCCNC(=N)N)C(N)=O)[C@@H](C)O | Kcnma1 (Mus musculus, UniProt Q08460) | ion current, blocker, inside-out patch clamp | Xenopus oocytes | range over 1 µM, pH 7.0, 22–24 °C, at 0 mV, together with: 10 µM cytosolic Ca2+ | Kd | 8000 nM |
| CC[C@H](C)[C@H](NC(=O)c1ccc2c(c1)C(=O)OC21c2ccc(N(C)C)cc2Oc2cc(N(C)C)ccc21)C(=O)N[C@@H](CCC(=O)O)C(=O)N[C@@H](CO)C(=O)N[C@@H](CO)C(=O)N[C@@H](CC(N)=O)C(=O)N[C@@H](Cc1ccc(O)cc1)C(=O)N[C@@H](CCSC)C(=O)N[C@@H](C)C(=O)N1CCC[C@H]1C(=O)N[C@@H](Cc1ccc(OP(=O)(O)O)cc1)C(=O)N[C@@H](CC(=O)O)C(=O)N[C@@H](CC(N)=O)C(=O)N[C@@H](Cc1ccc(O)cc1)C(=O)N[C@H](C(=O)N1CCC[C@H]1C(=O)N[C@@H](CO)C(=O)N[C@@H](C)C(=O)N[C@@H](CC(=O)O)C(=O)O)C(C)C | STAT1 SH2 domain | binding | – | – | Kd | 978 nM |
